Measurements gathered from unrelated publications.
Each line is one published result; not all experiments were run side by side. Several values in a cell are separate wells, animals, samples, runs or records. Numbers after ± are the reported error.
U2AF2: U2AF2 148-342 (Homo sapiens, UniProt P26368)
Chain of UniProt P26368 (whole entry, looked up): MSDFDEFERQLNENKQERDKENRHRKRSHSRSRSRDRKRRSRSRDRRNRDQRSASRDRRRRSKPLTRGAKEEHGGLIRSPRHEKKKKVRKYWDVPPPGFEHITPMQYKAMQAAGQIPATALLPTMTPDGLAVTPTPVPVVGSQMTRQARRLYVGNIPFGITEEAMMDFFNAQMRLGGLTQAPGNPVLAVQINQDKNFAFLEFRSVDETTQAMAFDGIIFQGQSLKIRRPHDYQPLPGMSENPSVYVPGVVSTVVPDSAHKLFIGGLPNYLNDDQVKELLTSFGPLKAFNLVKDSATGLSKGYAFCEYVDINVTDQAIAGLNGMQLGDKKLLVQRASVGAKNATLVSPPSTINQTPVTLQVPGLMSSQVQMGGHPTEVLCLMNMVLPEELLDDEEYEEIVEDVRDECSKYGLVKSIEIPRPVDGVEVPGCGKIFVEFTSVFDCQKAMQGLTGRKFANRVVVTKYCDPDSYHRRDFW
B1: PP4 regulatory subunit 4 (human); sequence looked up; chain MHPPPPAAAMDFSQNSLFGYMEDLQELTIIERPVRRSLKTPEEIERLTVDEDLSDIERAVYLLSAGQDVQGTSVIANLPFLMRQNPTETLRRVLPKVREALHVAGVEMQLTAAMSFLTILQDESVSIHAYTHSFLQVILLHLEHRDTGVSNAWLETLLSVIEVLPKETLRHEILNPLVSKAQLSQTVQSRLVSCKILGKLTNKFDAHTIKREILPLVKSLCQDVEYEVRSCMCRQLENIAQGIGTELTKSVVLPELIELSRDEGSSVRLAAFETLVNLLDIFDTDDRSQTILPLVKSFCEKSFKADESILISLSFHLGKLCHGLYGIFTPDQHLRFLEFYKKLCTLGLQQENGHNENQIPPQILEQEKKYISVRKNCAYNFPAMIVFVDPKNFHMELYSTFFCLCHDPEVPVRYTIAICFYEVSKLLNSGVYLIHKELITLLQDESLEVLDALIDHLPEILELMSTGGESSVQENKLSSLPDLIPALTAAEQRAAASLKWRTHEKLLQKYACLPHVISSDQIYYRFLQRMFTIMMTNNVLPVQKAASRTLCIFLRYNRKQEQRHEVIQKLIEQLGQGKSYWNRLRFLDTCEFIIEIFSKSFFCKYFFLPAIELTHDPVANVRMKLCYLLPKVKSTLKIPADKHLLQQLEMCVRKLLCQEKDKDVLAIVKRTVLELDRMEMSMDAFQKKFYEKDLLDQEKEREELLLLEMEQLEKEKQQNDGRPMSDKMFEKKRRDTKTPTQSLPKNIPISVPGPSSVTPSTSKEIKKSKLIRSQSFNNQAFHAKYGNLEKCASKSSTTGYTTSVSGLGKTSVLSLADDSFRTRNASSVPSSFSPNTPLPSTSRGTGNSVDPKSSGSKDTQPRKATLKSRKSNP
B2: human histone acetyltransferase 1; sequence looked up; chain AGFGAMEKFLVEYKSAVEKKLAEYKCNTNTAIELKLVRFPEDLENDIRTFFPEYTHQLFGDDETAFGYKGLKILLYYIAGSLSTMFRVEYASKVDENFDCVEADDVEGKIRQIIPPGFCTNTNDFLSLLEKEVDFKPFGTLLHTYSVLSPTGGENFTFQIYKADMTCRGFREYHERLQTFLMWFIETASFIDVDDERWHYFLVFEKYNKDGATLFATVGYMTVYNYYVYPDKTRPRVSQMLILTPFQGQGHGAQLLETVHRYYTEFPTVLDITAEDPSKSYVKLRDFVLVKLCQDLPCFSREKLMQGFNEDMVIEAQQKFKINKQHARRVYEILRLLVTDMSDAEQYRSYRLDIKRRLISPYKKKQRDLAKMRKCLRPEELTNQMNQIEISMQHEQLEESFQELVEDYRRVIERLAQE
B3: human ILK; sequence looked up; chain MDDIFTQCREGNAVAVRLWLDNTENDLNQGDDHGFSPLHWACREGRSAVVEMLIMRGARINVMNRGDDTPLHLAASHGHRDIVQKLLQYKADINAVNEHGNVPLHYACFWGQDQVAEDLVANGALVSICNKYGEMPVDKAKAPLRELLRERAEKMGQNLNRIPYKDTFWKGTTRTRPRNGTLNKHSGIDFKQLNFLTKLNENHSGELWKGRWQGNDIVVKVLKVRDWSTRKSRDFNEECPRLRIFSHPNVLPVLGACQSPPAPHPTLITHWMPYGSLYNVLHEGTNFVVDQSQAVKFALDMARGMAFLHTLEPLIPRHALNSRSVMIDEDMTARISMADVKFSFQCPGRMYAPAWVAPEALQKKPEDTNRRSADMWSFAVLLWELVTREVPFADLSNMEIGMKVALEGLRPTIPPGISPHVCKLMKICMNEDPAKRPKFDMIVPILEKMQDK
Chain of UniProt Q00535 (whole entry, looked up): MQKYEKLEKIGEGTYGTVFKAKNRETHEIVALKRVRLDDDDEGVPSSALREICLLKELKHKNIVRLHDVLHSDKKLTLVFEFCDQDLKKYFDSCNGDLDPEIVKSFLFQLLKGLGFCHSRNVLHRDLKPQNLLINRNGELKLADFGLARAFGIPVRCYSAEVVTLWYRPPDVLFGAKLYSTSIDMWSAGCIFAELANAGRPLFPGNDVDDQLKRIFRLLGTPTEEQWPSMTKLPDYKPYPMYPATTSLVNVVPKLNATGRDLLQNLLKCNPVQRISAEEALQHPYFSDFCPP

Molecule	tested on	test	test system	conditions	scale	quantity	value
B1 (PP4 regulatory subunit 4)	CYB5R4 knockout human cells	PP4 interaction, 3xFLAG-PP4C IP-MS		concentration not given	relative to: CYB5R4 KO over parental	log2 fold change	0.14
GSGAGRETEV	construct, MBP fusion, human SCRIB, PDZ 3-4	automated holdup	peptide, crude extract	concentration not given, corrected by standard peak, unit not given	relative to: biotin control resin, higher = stronger binding	binding intensity	0.61
human HUWE1	CYB5R4 knockout human cells	PP4 interaction, 3xFLAG-PP4C IP-MS		concentration not given	relative to: CYB5R4 KO over parental	log2 fold change	0.75
liraglutide			Wistar rat, female, diet-induced obese, blood, fasted	subcutaneous, dose not given, after 4 weeks treatment		serum HDL cholesterol	25 ± 1.4 mg/dL
B2	PP6C (human)	co-immunoprecipitation, IP-MS	CYB5R4 knockout cells	concentration not given	relative to: CYB5R4 knockout over parental	log2 fold change	-0.91
milbemycin oxime	Saccharomyces cerevisiae	cell growth	Pdr5 deleted, Cdr1 overexpressed	2^-4.966 µg/mL		OD600	1.01 and 0.996 and 0.975
human IGHG1	PP6C (human)	co-immunoprecipitation, IP-MS	CYB5R4 knockout cells	concentration not given	relative to: CYB5R4 knockout over parental	log2 fold change	-2.74
KEAYWDRCLSVINLMSSKMLQINA	Cyclin-dependent kinase 5, with p25 (CDK5, Homo sapiens, UniProt Q00535)	phosphotransferase activity, radiometric	peptide	concentration not given, 10% DMSO, added: histone substrate	relative to: p5-WT peptide	activity change	41%
QDEKVKESYV	construct, MBP fusion, human SCRIB, PDZ 3-4	surface plasmon resonance	peptide	concentration not given	higher = stronger binding	normalised SPR binding response	32.9 normalised RU
GUUUUUCAU (ssRNA)	U2AF2	sequencing of bound RNA	RNA	motif only		Kd	1470 nM
B3 (human ILK)	CYB5R4 knockout human cells	PP4 interaction, 3xFLAG-PP4C IP-MS		concentration not given	relative to: CYB5R4 KO over parental	log2 fold change	-0.49
colistin	Acinetobacter baumannii	broth microdilution	clinical isolate RKI-No_32/16			MIC	2 µg/mL
GSGAGSETVV	construct, MBP fusion, human SCRIB, PDZ 3-4	automated holdup	peptide, crude extract	concentration not given, corrected by standard peak, unit not given	relative to: biotin control resin, higher = stronger binding	binding intensity	0.13
Peginesatide	UT7/EPO	RT-qPCR, refers to: KLF6		concentration not given, 90 min, normalized to HPRT1	relative to: vehicle	mRNA level	3.7 fold
GSGAGKETRV	construct, MBP fusion, human SCRIB, PDZ 3-4	automated holdup	peptide, crude extract	concentration not given, corrected by standard peak, unit not given	relative to: biotin control resin, higher = stronger binding	binding intensity	0.277
CUGCGCGCU (ssRNA)	U2AF2	sequencing of bound RNA	RNA	motif only		Kd	3660 nM
colistin	Pseudomonas aeruginosa		PA1049 PER-producing isolate			MIC	2 µg/mL
maraviroc		qPCR	HIV-infected mice, somatosensory cortex	i.p., 120 mg/kg twice daily, 3 weeks post infection	relative to: HIV-infected untreated mice, increase	mRNA level	1.91 fold

A few entries again:
Molecule	tested on	test	test system	conditions	scale	quantity	value
GUUUUUCAU (ssRNA)	U2AF2	sequencing of bound RNA	RNA	motif only		Kd	1470 nM
GSGAGRETEV	construct, MBP fusion, human SCRIB, PDZ 3-4	automated holdup	peptide, crude extract	concentration not given, corrected by standard peak, unit not given	relative to: biotin control resin, higher = stronger binding	binding intensity	0.61
